Experimental data of several laboratories.
Each line is one published result; not all experiments were run side by side. ± gives the spread as reported.
rep main protease: Replicase polyprotein 1ab, main protease (rep, Severe acute respiratory syndrome coronavirus 2, UniProt P0DTD1)

The EC50 of `CC[C@@H]1C[C@]1(NC(=O)[C@@H]1C[C@@H]2CN1C(=O)[C@H](C(C)(C)C)NC(=O)OCC(C)(C)CCCCc1cccc3c1CN(C3)C(=O)O2)C(=O)NS(=O)(=O)C1CC1` is reported as 51 µM (Severe acute respiratory syndrome coronavirus 2; viral replication, inhibitor; Vero C1008).
`O=c1c(O)c(-c2cc(O)c(O)c(O)c2)oc2cc(O)cc(O)c12` gave an EC50 of > 100 µM (Severe acute respiratory syndrome coronavirus 2; antiviral activity; Huh-7; 96 h).
`CC(CN(C)C)CN1c2ccccc2CCc2ccccc21` (stereo not drawn) gave an EC50 of 20.5 µM (Severe acute respiratory syndrome coronavirus 2; viral replication; Vero C1008, USA_WA1/2020; 72 h).
`C[C@H](c1cccc2ccccc12)N1CCC(C(=O)NCc2cccc(-c3cn(Cc4nnc5c(F)cccn45)nn3)c2)CC1` has an EC50 of 0.38 µM (Severe acute respiratory syndrome coronavirus 2; viral replication; hACE2-HeLa; 48 h).
`Cc1c(O)cccc1C(=O)N[C@@H](CSc1ccccc1)[C@H](O)CN1C[C@H]2CCCC[C@H]2C[C@H]1C(=O)NC(C)(C)C` gave an EC50 of 4.2 µM (Severe acute respiratory syndrome coronavirus 2; cytopathic effect, inhibitor).
`O[C@H]1[C@H]2c3cc4c(cc3CN3CCC(=C[C@@H]1O)[C@H]23)OCO4` has an EC50 of 0.439 µM (Severe acute respiratory syndrome coronavirus 2; viral replication, inhibitor, qPCR; Vero C1008; 24 h).
With `CCN(CCO)CCCC(C)Nc1ccnc2cc(Cl)ccc12` (stereo not drawn) the EC50 was 17.7 µM (Severe acute respiratory syndrome coronavirus 2; cytopathic effect, inhibitor).
`CCCCCCCCCCCCCCCCOCCCOP(=O)(O)OC[C@H]1O[C@@](C#N)(c2ccc3c(N)ncnn23)[C@H](O)[C@@H]1O` gave an EC50 of 0.35 µM (Severe acute respiratory syndrome coronavirus 2; viral replication, inhibitor, qPCR; human; 48 h).
For `Cn1cnc(Cn2c(=O)[nH]/c(=N\c3cc4cn(C)nc4cc3Cl)n(Cc3cc(F)c(F)cc3F)c2=O)n1`, the EC50 was 0.06 µM (Severe acute respiratory syndrome coronavirus 2; viral replication, inhibitor; Vero C1008; 24 h, replicon).
`Cn1cnc(Cn2c(=O)[nH]/c(=N\c3cc4cn(C)nc4cc3Cl)n(Cc3cc(F)c(F)cc3F)c2=O)n1` has a Tmax of 4.25 h (human, normal renal function; oral, 375 mg, single dose, median).
`C=C[C@@H]1C[C@]1(NC(=O)[C@@H]1C[C@@H](Oc2ncc(OC)c3ccc(Cl)cc23)CN1C(=O)[C@@H](NC(=O)OC(C)(C)C)C(C)(C)C)C(=O)NS(=O)(=O)C1CC1` gave an EC50 of 72 µM (Severe acute respiratory syndrome coronavirus 2; viral replication, inhibitor; Vero C1008).
`CC[C@H](C)[C@H](NC(=O)[C@H](CC(C)C)NC(=O)[C@H](Cc1c[nH]c2ccccc12)NC(=O)[C@H](CCC(N)=O)NC(=O)[C@@H](NC(=O)[C@H](Cc1ccccc1)NC(=O)[C@H](C)NC(=O)[C@H](CCCCNC(=O)COCCOCCNC(=O)COCCOCCNC(=O)CC[C@H](NC(=O)CCCCCCCCCCCCCCCCCCC(=O)O)C(=O)O)NC(=O)[C@H](CCC(N)=O)NC(=O)[C@H](C)NC(=O)[C@@H](NC(=O)[C@H](CCCCN)NC(=O)[C@H](CC(=O)O)NC(=O)[C@H](CC(C)C)NC(=O)C(C)(C)NC(=O)[C@@H](NC(=O)[C@H](CO)NC(=O)[C@H](Cc1ccc(O)cc1)NC(=O)[C@H](CC(=O)O)NC(=O)[C@H](CO)NC(=O)[C@@H](NC(=O)[C@H](Cc1ccccc1)NC(=O)[C@@H](NC(=O)CNC(=O)[C@H](CCC(=O)O)NC(=O)C(C)(C)NC(=O)[C@@H](N)Cc1ccc(O)cc1)[C@@H](C)O)[C@@H](C)O)[C@@H](C)CC)[C@@H](C)CC)C(C)C)C(=O)N[C@@H](C)C(=O)NCC(=O)NCC(=O)N1CCC[C@H]1C(=O)N[C@@H](CO)C(=O)N[C@@H](CO)C(=O)NCC(=O)N[C@@H](C)C(=O)N1CCC[C@H]1C(=O)N1CCC[C@H]1C(=O)N1CCC[C@H]1C(=O)N[C@@H](CO)C(N)=O` gave a serum ALT of 21 ± 14 U/L (patients with type 2 diabetes, serum; 5 mg, baseline, proof of concept).
With `COC(=O)c1c(NC(=O)c2cc3ccccc3o2)sc(C)c1C` the EC50 was > 100 µM (Severe acute respiratory syndrome coronavirus 2; antiviral activity; Huh-7; 96 h).
With `COc1ccc2c(O[C@@H]3C[C@H]4C(=O)N[C@]5(C(=O)NS(=O)(=O)C6CC6)C[C@H]5/C=C\CCCCN(C)C(=O)[C@@H]4C3)cc(-c3nc(C(C)C)cs3)nc2c1C` the EC50 was 15 µM (Severe acute respiratory syndrome coronavirus 2; viral replication, inhibitor; Vero C1008).
For `N#Cc1ncccn1`, the inhibition was -0.556% (rep main protease; reporter gene (mKate2), inhibitor; 20 µM).
With `C=C[C@@H]1C[C@]1(NC(=O)[C@@H]1C[C@@H](Oc2cc(-c3csc(NC(=O)C(C)C)n3)nc3c(Br)c(OC)ccc23)CN1C(=O)[C@@H](NC(=O)OC1CCCC1)C(C)(C)C)C(=O)O` the EC50 was 23 µM (Severe acute respiratory syndrome coronavirus 2; viral replication, inhibitor; Vero C1008).
For `Nc1ncnc2c([C@@H]3N[C@H](CO)[C@@H](O)[C@H]3O)c[nH]c12`, the infected cells was 5.6% (Marburg virus; viral replication, antibody staining; HeLa, Musoke; 12.5 µM, 24 h).
`CN(C)c1ccc(C2Nc3ccc4ccccc4c3C3=C2C(=O)CC(C)(C)C3)cc1Br` (stereo not drawn) has an inhibition of -4.45% (rep main protease; viral replication, Gluc reporter; SARS-CoV-2; 20 µM).
`O=C1c2c(O)ccc(O)c2C(=O)c2c(NCCNCCO)ccc(NCCNCCO)c21` gave an EC50 of > 100 µM (Severe acute respiratory syndrome coronavirus 2; antiviral activity; Huh-7; 96 h).
`COc1c(OCCCN2CCOCC2)ccc2c1N=C(NC(=O)c1cnc(N)nc1)N1CCN=C21` gave an EC50 of > 20 µM (Severe acute respiratory syndrome coronavirus 2; viral replication; Vero C1008, USA_WA1/2020; 72 h).
`Clc1cccc(/C=C/c2nn3c(-c4ccco4)nnc3s2)c1` gave an EC50 of > 100 µM (Severe acute respiratory syndrome coronavirus 2; antiviral activity; Huh-7; 96 h).
The EC50 of `C=CC(=O)Nc1cc(Nc2nccc(-c3cn(C)c4ccccc34)n2)c(OC)cc1N(C)CCN(C)C` is reported as 3.98 µM (Severe acute respiratory syndrome coronavirus 2; viral replication; Vero C1008, USA_WA1/2020; 72 h).
`CC[C@H]1CN2CCc3cc(OC)c(OC)cc3[C@@H]2C[C@@H]1C[C@H]1NCCc2cc(O)c(OC)cc21` gave an EC50 of 0.0123 µM (Severe acute respiratory syndrome coronavirus 2; viral replication, inhibitor, qPCR; Vero C1008; 24 h).
With `COc1ccc2c(O[C@@H]3C[C@H]4C(=O)N[C@]5(C(=O)NS(=O)(=O)C6CC6)C[C@H]5/C=C\CCCCC[C@H](CC(=O)N5CCCC(F)(F)C5)C(=O)N4C3)cc(-c3nc(C(C)C)cs3)nc2c1C` the EC50 was > 20 µM (Severe acute respiratory syndrome coronavirus 2; viral replication, inhibitor; Vero C1008).

Excerpt of the above:
`O[C@H]1[C@H]2c3cc4c(cc3CN3CCC(=C[C@@H]1O)[C@H]23)OCO4` has an EC50 of 0.439 µM (Severe acute respiratory syndrome coronavirus 2; viral replication, inhibitor, qPCR; Vero C1008; 24 h).
With `CCN(CCO)CCCC(C)Nc1ccnc2cc(Cl)ccc12` (stereo not drawn) the EC50 was 17.7 µM (Severe acute respiratory syndrome coronavirus 2; cytopathic effect, inhibitor).
